Results gathered from unrelated publications.
Compare with care: the assays were run in different laboratories. ± marks the error that the study gave.
Target: Albumin (ALB, Bos taurus, UniProt P02769)
Chain of UniProt P02769 (whole entry, looked up): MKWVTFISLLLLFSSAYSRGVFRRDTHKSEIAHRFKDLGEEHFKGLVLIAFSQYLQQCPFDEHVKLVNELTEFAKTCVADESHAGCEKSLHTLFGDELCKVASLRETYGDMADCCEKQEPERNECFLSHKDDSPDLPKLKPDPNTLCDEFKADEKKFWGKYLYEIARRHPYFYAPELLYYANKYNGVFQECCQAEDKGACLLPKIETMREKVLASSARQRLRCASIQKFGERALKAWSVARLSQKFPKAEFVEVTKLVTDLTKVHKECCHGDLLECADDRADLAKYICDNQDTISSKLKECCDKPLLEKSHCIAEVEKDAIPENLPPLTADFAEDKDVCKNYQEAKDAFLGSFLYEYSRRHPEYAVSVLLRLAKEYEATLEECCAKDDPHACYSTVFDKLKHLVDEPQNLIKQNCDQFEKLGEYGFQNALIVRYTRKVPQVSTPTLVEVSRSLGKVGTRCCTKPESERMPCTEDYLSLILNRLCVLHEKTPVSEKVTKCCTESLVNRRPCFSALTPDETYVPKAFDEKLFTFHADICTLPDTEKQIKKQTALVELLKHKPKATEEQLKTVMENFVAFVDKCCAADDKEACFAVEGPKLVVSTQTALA

Compound	assay	conditions	measurement	result
CC(=O)[O-].O.O.O.O.[Co+2].[O-]c1ccc(Br)cc1C=NCCN1CCOCC1	UV absorption titration	–	Gibbs free energy change	-5.93 kcal/mol
O=C([O-])CN1CCN(CC(=O)[O-])CCN(C(CCC(=O)NC(Cc2c[nH]c3ccc(O)cc23)C(=O)NCCc2c[nH]c3ccc(O)cc23)C(=O)O)CCN(CC(=O)[O-])CC1.[Gd+3] (stereo not drawn)	binding	concentration not given, 1 h, 40 °C, no BSA, added: MPO, glucose oxidase, glucose	T1 shortening	80%
CCCCCCCCCCCCCC(=O)Nc1ccccc1SSc1ccccc1NC(=O)CCCCCCCCCCCCC	binding, fluorescence quenching	313 K	Gibbs free energy change	-7.04 kcal/mol
CC1=[N+]2N=C(c3ccccc3)[O][Pd-2]2([Cl])[O+]=C2Oc3ccccc3C=C21 (stereo not drawn)	UV-visible absorption titration	concentration not given, 278 nm	hyperchromism	36%
Cc1ccc(C(C)C)cc1.[Cl-].[Cl][Ru+].[Ru+].c1ccc(-c2cn(CCCCOc3ccccc3-c3nc4ccccc4s3)nn2)nc1	tryptophan fluorescence quenching	–	Stern-Volmer constant	137000 M⁻¹
CCCCCCCCCCCC(=O)Nc1ccccc1SSc1ccccc1NC(=O)CCCCCCCCCCC	binding, fluorescence quenching	298 K	Gibbs free energy change	-11.8 kcal/mol
COC(=O)c1cnc(-c2cnccn2)cc1C(=O)OC.COC(=O)c1cnc(-c2cnccn2)cc1C(=O)OC.[Cl-].[Cl-].[Cl-].[Cl-].[Cu+2].[Cu+2]	fluorescence quenching	pH 7.4, BSA 5 µM	Stern-Volmer constant	874000 ± 13000 M⁻¹
O=C(O[C@@H]1Cc2c(O)cc(O)cc2O[C@@H]1c1cc(O)c(O)c(O)c1)c1cc(O)c(O)c(O)c1	binding, fluorescence quenching, refers to: BSA tryptophan fluorescence	25 µM, pH 7.4	emission maximum	365 nm
CCCCCCCCCCCCCCCC(=O)Nc1ccccc1SSc1ccccc1NC(=O)CCCCCCCCCCCCCCC	binding, van't Hoff	concentration not given, 298-313 K	enthalpy change	-23.2 kcal/mol

For quick reference, copied from above:
Compound	assay	conditions	measurement	result
CCCCCCCCCCCC(=O)Nc1ccccc1SSc1ccccc1NC(=O)CCCCCCCCCCC	binding, fluorescence quenching	298 K	Gibbs free energy change	-11.8 kcal/mol
